Results from different studies.
Each numbered part is a random draw from the data of one study; scales do not carry over between parts.

Study 1
Target: Interferon regulatory factor 7, full length, phosphomimetic (IRF7, Homo sapiens, UniProt Q92985, residues 1-503, S101K/S471D/S472D/S475D/S476D/S477D/S483D/S484D/S487D)
Technique: protein-binding microarray
Molecule type: double-stranded DNA, one strand shown
Medium: in vitro
Tested at: 250 nM
Notes: 60-bp whole probe
Together with: salmon DNA 0.4 mg/ml
Reference: random background probes
Direction: higher = stronger binding
Shared flanks, not repeated: GCCTAGCAC … GTCTTGATTCGCTTGACGCTGCTG
Residues (chain): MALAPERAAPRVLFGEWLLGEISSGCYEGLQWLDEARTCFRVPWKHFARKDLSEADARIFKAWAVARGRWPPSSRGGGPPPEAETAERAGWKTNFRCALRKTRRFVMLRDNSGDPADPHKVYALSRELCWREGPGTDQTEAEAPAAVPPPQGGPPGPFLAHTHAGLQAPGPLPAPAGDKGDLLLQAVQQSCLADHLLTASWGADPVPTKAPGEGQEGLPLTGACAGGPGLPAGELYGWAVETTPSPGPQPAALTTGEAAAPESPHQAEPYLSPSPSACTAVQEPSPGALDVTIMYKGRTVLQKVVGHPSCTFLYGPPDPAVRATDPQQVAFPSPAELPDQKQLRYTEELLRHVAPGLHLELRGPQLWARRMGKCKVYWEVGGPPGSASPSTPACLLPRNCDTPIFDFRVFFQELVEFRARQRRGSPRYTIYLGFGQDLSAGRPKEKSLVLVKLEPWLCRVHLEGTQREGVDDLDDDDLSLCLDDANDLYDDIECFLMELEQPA
Oligonucleotide | log fluorescence
TAAGGTTTCCTTTCCCTTTAGTGCTAG | 5.52 z-score
TCACATATATATATGAAACTGTGCTAG | 0.69 z-score
TTAGGACTGGGTCCCGGTTAGTGCTAG | 0.622 z-score
GACGAATTCGGGTTTCGAGACGTGCTA | 3.85 z-score
TCATATGTACTCTCTCCAACTGTGCTA | 0.254 z-score

Study 2
Target: Sal-like protein 4, full length isoform A (SALL4, Homo sapiens, UniProt Q9UJQ4, residues 1-1053)
Chain of UniProt Q9UJQ4 (whole entry, looked up): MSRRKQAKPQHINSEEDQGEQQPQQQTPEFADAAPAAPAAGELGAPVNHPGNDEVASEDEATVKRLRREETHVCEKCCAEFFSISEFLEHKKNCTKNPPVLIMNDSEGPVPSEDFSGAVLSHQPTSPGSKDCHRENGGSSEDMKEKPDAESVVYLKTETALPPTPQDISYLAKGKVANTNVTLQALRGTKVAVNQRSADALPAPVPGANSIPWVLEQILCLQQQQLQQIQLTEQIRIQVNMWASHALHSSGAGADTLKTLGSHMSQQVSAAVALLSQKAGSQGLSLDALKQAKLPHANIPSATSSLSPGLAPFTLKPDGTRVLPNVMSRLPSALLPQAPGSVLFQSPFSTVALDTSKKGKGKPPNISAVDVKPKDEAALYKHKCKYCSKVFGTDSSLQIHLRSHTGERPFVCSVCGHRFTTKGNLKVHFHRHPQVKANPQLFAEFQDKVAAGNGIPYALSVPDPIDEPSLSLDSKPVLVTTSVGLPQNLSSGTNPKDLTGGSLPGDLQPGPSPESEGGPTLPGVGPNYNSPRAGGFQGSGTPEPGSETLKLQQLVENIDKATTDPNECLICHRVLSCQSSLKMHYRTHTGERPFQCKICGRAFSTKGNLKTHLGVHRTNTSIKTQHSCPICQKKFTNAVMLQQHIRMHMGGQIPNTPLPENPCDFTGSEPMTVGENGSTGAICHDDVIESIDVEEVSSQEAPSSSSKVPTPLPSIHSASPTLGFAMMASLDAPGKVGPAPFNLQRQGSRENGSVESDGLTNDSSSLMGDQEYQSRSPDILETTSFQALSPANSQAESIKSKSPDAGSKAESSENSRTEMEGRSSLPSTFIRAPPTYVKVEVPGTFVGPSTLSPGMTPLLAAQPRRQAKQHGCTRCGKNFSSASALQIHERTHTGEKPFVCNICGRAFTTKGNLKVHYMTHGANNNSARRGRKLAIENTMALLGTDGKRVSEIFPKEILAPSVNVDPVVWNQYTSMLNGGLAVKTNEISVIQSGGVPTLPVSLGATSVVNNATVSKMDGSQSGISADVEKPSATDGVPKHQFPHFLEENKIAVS
Technique: universal PBM
Molecule type: double-stranded DNA, one strand shown
Medium: in vitro
Tested at: 600 nM
Notes: 8-mer, flanks averaged, mean of replicates
Direction: higher = stronger binding
Oligonucleotide | E-score
CTGTCCGC | -0.245
CCCCGAGC | -0.171
ATCGAAGC | -0.0685
CAGATCGA | -0.0405
CCCCCTAA | -0.0895
TTACCTAA | 0.197
AAGATATC | 0.211

Other studies, line by line
Compound | tested on | test | test system | conditions | quantity | value
c1cnc(SCc2cccnc2)nc1 | Replicase polyprotein 1ab, 3C-like proteinase (rep, Middle East respiratory syndrome-related coronavirus, UniProt K9N7C7) | enzyme activity | – | 10 µM | inhibition | 19%
O=C(O)[C@@H](S)[C@@H](S)C(=O)O | Replicase polyprotein 1ab, nsp13 helicase (rep, Severe acute respiratory syndrome coronavirus 2, UniProt P0DTD1) | helicase activity | SARS-CoV-2 | – | IC50 | 4.37 µM
CN1Cc2ccccc2[C@@H]2c3cccc4[nH]cc(c34)C[C@H]21 | SARS-CoV-2 | cytopathic effect | Vero E6 | 10 µM | inhibition | 8.3%

A few entries again (study 2):
Oligonucleotide | E-score
TTACCTAA | 0.197
ATCGAAGC | -0.0685
AAGATATC | 0.211
